Measured values collected from several papers.
Each numbered part is a random draw from the data of one study; scales do not carry over between parts. Positions count from the first letter of the parent shown.

Sample 1
Target: Prothrombin, mature alpha-thrombin (F2, Homo sapiens, UniProt P00734)
Technique: aptamer microarray, sandwich
Molecule type: DNA with 2'F-ANA
Sample: in vitro
Tested at: 200 nM
Setting: whole 15-mer aptamer, many near background
With: Cy3 exosite-II aptamer, 400 nM
Reading: higher = stronger binding
Quantity: mean fluorescence intensity
Oligonucleotide: GGTTGGTGTGGTTGG
2'F-ANA at 1 2 3 4 6 8 9 10 11 14: 62.3 a.u.
2'F-ANA at 4 5 8 9 10 11 14 15: 84.2 a.u.
2'F-ANA at 1 4 6 7 8 10 11 12 14: 49 a.u.
2'F-ANA at 1 3 6 7 8 11 12 14 15: 119 a.u.
2'F-ANA at 1 2 3 5 7 9 11 13: 50.8 a.u.
2'F-ANA at 2 5 7 9 10 11 14 15: 47.1 a.u.
2'F-ANA at 3 4 5 6 8 9 12 13 15: 107 a.u.
2'F-ANA at 10 11 12 14 15: 98.6 a.u.
2'F-ANA at 2 4 5 7 10 12 13 14: 50.3 a.u.
2'F-ANA at 2 3 6 13: 540 a.u.
2'F-ANA at 3 5 6 8 9 12 15: 261 a.u.
2'F-ANA at 1 3 5 7 8 10 12: 48.9 a.u.
2'F-ANA at 5 12 13: 131 a.u.
2'F-ANA at 3 5 6 7 8 10 13 14 15: 52.5 a.u.
2'F-ANA at 1 2 3 5 9 11 12 14 15: 83.6 a.u.
2'F-ANA at 1 9 10 11 12 15: 65.4 a.u.
2'F-ANA at 1 10 12 15: 78.9 a.u.
2'F-ANA at 2 3 5 7 8 9 13: 118 a.u.
2'F-ANA at 3 5 6 7 8 11 13: 107 a.u.
2'F-ANA at 2 4 5 7 8 9 11 12 15: 168 a.u.

Sample 2
Target: Histone acetyltransferase KAT6A, winged helix 2, GST fusion (KAT6A, Homo sapiens, UniProt Q92794, residues 85-181)
Technique: protein binding microarray
Molecule type: double-stranded DNA, one strand shown
Sample: in vitro
Tested at: not given
Setting: 8-mer, flanks averaged, mean of 2 arrays, mostly near background
Relative to: not given
Reading: higher = stronger binding
Quantity: E-score
Construct (chain): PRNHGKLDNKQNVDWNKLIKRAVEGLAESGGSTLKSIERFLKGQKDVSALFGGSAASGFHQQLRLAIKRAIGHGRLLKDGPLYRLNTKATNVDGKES
TAAATGTA: -0.158
AAACTTCC: 0.00385
CCCCTCAG: -0.212
ACCGCAAT: 0.189
AAACCAGC: 0.189
CGCTCATC: 0.089
CCGTGTTC: 0.0689
AGCCACGA: 0.0198
GTTCGATA: 0.0385
GCCTTAGC: 0.113
CCCTACTA: -0.144
ACGACAGT: 0.00596
CAGTTGCC: 0.0813
ACCATGGA: -0.164
TACGGCCA: -0.0427

Sample 3
Target: RING finger protein unkempt homolog, zinc fingers 1-6, GST-SBP tag (UNK, Homo sapiens, UniProt Q9C0B0, residues 30-357)
Sequence of UniProt Q9C0B0 (30-357, looked up): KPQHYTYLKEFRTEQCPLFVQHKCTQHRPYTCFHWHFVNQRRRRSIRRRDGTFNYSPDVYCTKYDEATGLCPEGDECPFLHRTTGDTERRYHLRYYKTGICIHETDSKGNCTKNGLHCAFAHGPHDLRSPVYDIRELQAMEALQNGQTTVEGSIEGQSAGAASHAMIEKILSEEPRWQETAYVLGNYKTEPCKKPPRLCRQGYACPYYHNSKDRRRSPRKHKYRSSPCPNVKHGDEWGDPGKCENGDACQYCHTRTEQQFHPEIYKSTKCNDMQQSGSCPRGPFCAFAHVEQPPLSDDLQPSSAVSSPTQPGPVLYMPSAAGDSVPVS
Technique: RNA Bind-n-Seq
Molecule type: RNA
Sample: in vitro
Tested at: not given
Setting: RNA with constant flanks, human and mouse sites, ends assumed
Relative to: input RNA pool
Reading: higher = stronger binding
Quantity: bound/input enrichment
Constant ends, left off below: GGGAGUUCUACAGUCCGACGAUC … CAACAGAGGAUUGAGCAUCA
GUCAAUUUUAAAAUUAUGUGGAACAUACGUUUUCUGCUGAAAAUUAUGCUAGACUUAAAAUUGAGUGGCCUUGGUCCACUUUGCUGUGUUGUUUUUGUCAUUGAAAAUAAAUAAAACUUU: 0.8 ratio
GGGAACAACAAUCAAAGUAAACCAGGCUUCCUGAGGAAGAAUCAUUAUACAAACACCAAACUAGAGGUGAAAAAAAUCCCCCAGGAAUUGAACAACAUUACCAAGCUCAACGAACACUUC: 0.601 ratio
AGGGAAUAAUGCUGGGAGGAGCACAGAGACAUAUCCAGGGAGAGAGGGCGCUCACGCCCGAAGGCCUCCUGUGAGCUCUGGGAUGGCCUGCCAUCUAUCUGCUCCUGCUGUUCCCCAGGG: 0.11 ratio
GCAGUAGCCAGAGGAUGUGCAUUACAGUGUGCAAUACUUUCCCCGGCAUUUAAAGUUAGAGAAUUUUCCGUCACAGAUGCAGUUCCUUUUCCAAUAUCUCUGAUCUGGAACCAUGAUUCA: 0.362 ratio
UUGUAAGUGCACGCACGCCAGUGGUCUGUUCCCGCGGCCGGGUUUGAUGGCACAGCUAUUUUCUUCCCAAACUGUUCAAAAUGAUGAACGAAGAUGCAGCUCAGAAAAGCGACAGUGGAG: 0.24 ratio
GUCCAAGCACAGUGUGACUGCUGUUUUUUAUACUGGCAUCGCGCUGUCUUCCCGAUUUAUUUAGAUGAUGUAUAUGAAAAUGCUGUCGAUGCAGCCAGAUUACAUUACAUGUUCAGUGCU: 1.2 ratio

Sample 4
Target: CCNE2, cyclin fold, Cln2 fusion (human)
Technique: yeast growth competition, sequencing
Sample: yeast
Setting: strong parent motif
Relative to: not given
Reading: higher = stronger binding
Quantity: normalised enrichment score
Starting sequence: E2F1 docking peptide (human); PPVKRRLDFETDH; partner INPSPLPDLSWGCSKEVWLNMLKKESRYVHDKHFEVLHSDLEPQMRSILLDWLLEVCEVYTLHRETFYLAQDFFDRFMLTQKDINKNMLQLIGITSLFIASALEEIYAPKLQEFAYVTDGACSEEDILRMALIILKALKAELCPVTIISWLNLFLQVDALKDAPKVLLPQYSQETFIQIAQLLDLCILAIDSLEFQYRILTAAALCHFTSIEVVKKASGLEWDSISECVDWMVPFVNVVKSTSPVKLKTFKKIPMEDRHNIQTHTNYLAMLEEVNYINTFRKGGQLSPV
PPVDRRLDFETDH [K4D]: 0.227
PPVKTRLDFETDH [R5T]: 0.211
PPVWRRLDFETDH [K4W]: 1.28
PPVKRRLDFEGDH [T11G]: 5.64
PRVKRRLDFETDH [P2R]: 5.8
PPVKRRLDFETHH [D12H]: 6.4
PPMKRRLDFETDH [V3M]: 1.53
PPVKRRLDSETDH [F9S]: 0.349
PPSKRRLDFETDH [V3S]: 1.44
PPVKRGLDFETDH [R6G]: 0.391
PPVPRRLDFETDH [K4P]: 1.26
PPVKRALDFETDH [R6A]: 2.39
PPVKRNLDFETDH [R6N]: 1.1
PPVKWRLDFETDH [R5W]: 0.0882
PPVKRRLDFEIDH [T11I]: 5.88
PPVKRRLDFEMDH [T11M]: 5.89

Sample 5
Target: Protein C-ets-1, full length (ETS1, Homo sapiens, UniProt P14921, residues 1-441)
Sequence of UniProt P14921 (whole entry, looked up): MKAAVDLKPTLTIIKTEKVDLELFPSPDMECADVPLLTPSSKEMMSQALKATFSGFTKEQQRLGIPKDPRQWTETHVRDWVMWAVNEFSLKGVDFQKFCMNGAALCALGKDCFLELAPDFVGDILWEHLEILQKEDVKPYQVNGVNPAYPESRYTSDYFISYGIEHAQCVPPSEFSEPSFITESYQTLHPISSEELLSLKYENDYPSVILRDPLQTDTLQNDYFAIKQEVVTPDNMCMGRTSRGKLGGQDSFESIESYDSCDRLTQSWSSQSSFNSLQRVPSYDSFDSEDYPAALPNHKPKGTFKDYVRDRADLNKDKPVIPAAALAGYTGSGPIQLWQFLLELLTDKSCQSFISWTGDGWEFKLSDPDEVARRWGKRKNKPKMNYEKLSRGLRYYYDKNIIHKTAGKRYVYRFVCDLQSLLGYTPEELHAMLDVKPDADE
Technique: protein-binding microarray
Molecule type: hairpin DNA
Sample: in vitro
Tested at: not given
Setting: whole hairpin DNA, median over replicate spots
Relative to: not given
Reading: higher = stronger binding
Quantity: median fluorescence
GAGGCCAGTCGGAACTTGCCTCCTGGCAAGTTCCGACTGGCCTCACACTC: 829 a.u.
GAGGCCAGGCGGAAGTTGCCTCCTGGCAACTTCCGCCTGGCCTCACACTC: 6920 a.u.
GAGGCCAGCCGGAAGTTGCCTCCTGGCAACTTCCGGCTGGCCTCACACTC (5mC at 9): 4390 a.u.
GAGGCCAGCCGGCAGTTGCCTCCTGGCAACTGCCGGCTGGCCTCACACTC (5mC at 13): 606 a.u.
GAGGCCGGTCGGAAGTTGCCTCCTGGCAACTTCCGACCGGCCTCACACTC (5mC at 38): 2300 a.u.
GAGGCCAGTCCGAAGTTGCCTCCTGGCAACTTCGGACTGGCCTCACACTC (5mC at 11 33): 537 a.u.
GAGGCCAGTCGGGAGTTGCCTCCTGGCAACTCCCGACTGGCCTCACACTC: 556 a.u.

Sample 6
Target: Sal-like protein 4, full length isoform B (SALL4, Homo sapiens, UniProt Q9UJQ4-2, residues 1-616)
Technique: universal PBM
Molecule type: double-stranded DNA, one strand shown
Sample: in vitro
Tested at: not given
Setting: 8-mer, flanks averaged, mean of replicates
Reading: higher = stronger binding
Quantity: E-score
AATGCCTG: -0.0607
CACGCCAG: -0.316
GATAGACA: 0.0487
CCTTCAAA: 0.149
CCTAGATC: -0.0614
ATAGAAAA: 0.156
ACGAATAA: 0.268
GCGTCACC: -0.293
CGGAATCC: -0.181
GCCGTTAA: -0.0152
ATTGACGG: 0.0689
AGCCACAG: -0.196
CGTAGCGA: -0.156
CTTGTCTA: 0.134
AATTCCCC: 0.0558
GAGTTTAA: 0.105
CGTGAGCA: -0.242

Sample 7
Target: Interferon regulatory factor 5, full length, phosphomimetic (IRF5, Homo sapiens, UniProt Q13568-2, residues 1-514, S451D/S453D/S456D/S462D)
Technique: protein-binding microarray
Molecule type: double-stranded DNA, one strand shown
Sample: in vitro
Tested at: 940 nM top
Setting: 60-bp whole probe
With: salmon DNA 0.4 mg/ml
Relative to: random background probes
Reading: higher = stronger binding
Quantity: fitted relative affinity
Constant ends, left off below: GCCTAGCAC … GTCTTGATTCGCTTGACGCTGCTG
GACGATCACAGTTTCGAGACGTGCTAG: 3.35 z-score
TTAGGTTTTCTTTCCCTTTAGTGCTAG: 1.54 z-score
TTAGGACTGGGGTATCGGTGAGTGCTA: 1.55 z-score
GTGTTATTAAAACTTCATGAAGTGCTA: -0.321 z-score
GTCGATTTCAGTTTCGAGACGTGCTAG: 7.39 z-score
TCATCTTTACTGCTCCAACTGTGCTAG: 1.02 z-score
GACGATTCCAGTTTAGAGACGTGCTAG: -0.0468 z-score
GACGGTCTCGGACCGGGGACGTGCTAG: 0.559 z-score
GACGATTTGAGTATCGAGACGTGCTAG: 2.03 z-score
TTAGCTTCCCTTTTCCTTTAGTGCTAG: 1.25 z-score
TTAGGACTTCTTTTCCTTTAGTGCTAG: 0.43 z-score
TGTAGCTGGAGAAGTAAAACGTGCTAG: -0.289 z-score
GTGAACCGGTCTCTCAGACCGTGCTAG: -0.615 z-score
TCACCTTTTCTTTACTGACTGTGCTAG: 2.07 z-score
GACGGTTTAGACTTTCGGGACGTGCTA: 0.789 z-score
TTAGAACTGAGACTGGGTTAGTGCTAG: -0.444 z-score
GAGGATTTCAGTTCCGAGACGTGCTAG: 0.269 z-score
TTTCCTATGTCATTTACATTGTGCTAG: 1.16 z-score

Sample 8
Target: UBE2B UBC core domain (UniProt P63146)
Sequence of UniProt P63146 (whole entry, looked up): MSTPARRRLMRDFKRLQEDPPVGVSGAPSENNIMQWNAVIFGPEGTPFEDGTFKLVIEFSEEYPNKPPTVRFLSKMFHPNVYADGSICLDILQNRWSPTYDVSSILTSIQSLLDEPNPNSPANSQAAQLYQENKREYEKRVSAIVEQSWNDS
Technique: yeast two-hybrid
Sample: yeast
Setting: mostly zero background
Relative to: not given
Reading: higher = stronger interaction
Quantity: lacZ reporter activity
B1: TRIM5 RING domain (UniProt Q9C035); chain ILVNVKEEVTCPICLELLTQPLSLDCGHSFCQACLTANHKKSMLDKGESSCPVCRISYQPENIRP
B2: RNF208 RING domain (UniProt Q9H0X6); chain SSAAAGEPLECPTCGHSYNVTQRRPRVLSCLHSVCEQCLQILYESCPKYKFISCPTCRRETVLFTDYG
B3: TRIML1 RING domain (UniProt Q8N9V2); chain LMENLREELTCFICLDYFSSPVTTECGHSFCLVCLLRSWEEHNTPLSCPECWRTLEGPHFQS
VEPSEENSKDCVVCQNGTVNWVLLPCRHTCLCDGCVKYFQQCPMCRQFVQESFALC (CGRRF1 RING domain (UniProt Q99675)): 0
B1 (TRIM5 RING domain): 0
B2 (RNF208 RING domain): 0
MPIRALCTICSDFFDHSRDVAAIHCGHTFHLQCLIQWFETAPSRTCPQCRIQVGKRTIIN (TRAIP RING domain (UniProt Q9BWF2)): 0
DHGAVGQEMCCPICCSEYVKGEVATELPCHHYFHKPCVSIWLQKSGTCPVCRCMFPPPL (PJA1 RING domain (UniProt Q8NG27)): 0
B3 (TRIML1 RING domain): 0
PAELEVQASECVVCLEREAQMIFLNCGHVCCCQQCCQPLRTCPLCRQDIAQRLRIY (LRSAM1 RING domain (UniProt Q6UWE0)): 0
